Assay results of several laboratories.
Parts stem from different laboratories: compare values within a part only. Substitutions count along the parent as printed.

Series 1
Target: PABPC1L2, full length, GST fusion (mouse, UniProt A0ABA7IW68)
Method: RNAcompete
Molecule type: RNA
Matrix: in vitro
Concentration: 20 nM
Notes: 7-mer, probes averaged, single round
Relative to: mean of 7-mers
Direction: higher = stronger binding
Measurement: 7-mer Z-score
Construct (chain): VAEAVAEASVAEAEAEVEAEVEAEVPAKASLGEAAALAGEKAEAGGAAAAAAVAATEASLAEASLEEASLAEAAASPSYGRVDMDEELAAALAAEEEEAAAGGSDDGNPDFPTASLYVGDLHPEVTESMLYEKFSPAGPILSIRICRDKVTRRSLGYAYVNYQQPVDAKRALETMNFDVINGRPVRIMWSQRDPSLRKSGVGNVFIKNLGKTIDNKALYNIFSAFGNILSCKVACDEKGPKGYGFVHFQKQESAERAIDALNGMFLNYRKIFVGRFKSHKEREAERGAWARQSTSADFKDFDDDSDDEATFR
CGACCGA: 0.198
GUGGUAU: -0.177
CAAAGUA: 0.398
UAUGCGC: -0.0953
AGUGGUC: -0.199
CAAACUC: -0.0355
UCGACAU: -0.173
CGUUUUC: -0.458

Series 2
Target: tungstate, free oxyanion
Method: microfluidic competitive inhibition
Matrix: in vitro, cell-free expressed
Concentration: not given
Notes: derived from inhibition constants, unchanged parent 2230 nM
Direction: lower = stronger binding
Measurement: oxyanion analog dissociation constant
Starting sequence: PafA, mature enzyme, eGFP fusion (Elizabethkingia meningoseptica, UniProt Q9KJX5); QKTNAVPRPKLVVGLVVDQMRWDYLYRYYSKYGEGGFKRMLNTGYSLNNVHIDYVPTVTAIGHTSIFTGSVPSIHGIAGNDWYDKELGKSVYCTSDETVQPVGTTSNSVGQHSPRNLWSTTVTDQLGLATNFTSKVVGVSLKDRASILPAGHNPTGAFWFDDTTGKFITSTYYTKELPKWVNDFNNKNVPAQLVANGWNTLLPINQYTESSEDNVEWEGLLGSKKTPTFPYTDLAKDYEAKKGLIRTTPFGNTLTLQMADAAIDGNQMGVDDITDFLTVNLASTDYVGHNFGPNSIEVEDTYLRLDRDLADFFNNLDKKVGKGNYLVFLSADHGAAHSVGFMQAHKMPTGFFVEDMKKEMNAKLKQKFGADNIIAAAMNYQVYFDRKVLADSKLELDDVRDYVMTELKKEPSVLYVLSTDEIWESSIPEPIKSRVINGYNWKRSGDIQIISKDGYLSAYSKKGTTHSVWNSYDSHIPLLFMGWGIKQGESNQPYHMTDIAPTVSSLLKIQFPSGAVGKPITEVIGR
H63V: 15.4 µM
S467V: 2.99 µM
W469G: 372 nM
F229G: 554 nM
T349G: 2.01 µM
T164G: 1.48 µM
D398V: 2.45 µM
R246G: 4.4 µM
E297G: 754 nM
S412G: 2.92 µM
G265V: 2.86 µM
Y238V: 2.31 µM
E359V: 2.1 µM
A331G: 5.32 µM
Y45V: 2.34 µM
Y92V: 45.6 µM
P477G: 3.76 µM
N4V: 2.18 µM
W217V: 850 nM
Y459G: 1.79 µM

Series 3
Target: CCNE1, cyclin fold, Cln2 fusion (human)
Method: yeast growth competition, sequencing
Matrix: yeast
Notes: strong parent motif
Relative to: not given
Direction: higher = stronger binding
Measurement: normalised enrichment score
Starting sequence: viral docking peptide; KGVKRKLFAEDSS
KGVKRKLFWEDSS [A9W]: 7.01
KGVKRKLFAEPSS [D11P]: 7.34
KGVKRKLSAEDSS [F8S]: -0.284
KGVKRKLFAEDPS [S12P]: 7.91
KGVKRALFAEDSS [K6A]: 6.47
KGSKRKLFAEDSS [V3S]: 2.25
KVVKRKLFAEDSS [G2V]: 6.42
KGVKRHLFAEDSS [K6H]: 4.52
KGVKPKLFAEDSS [R5P]: 0.215
KGVNRKLFAEDSS [K4N]: 6.16
KGVKRKLTAEDSS [F8T]: 0.0488
KGVKRKLFAEDGS [S12G]: 6.99
KGVKRKLFAEDTS [S12T]: 7.62
KGVKRKLFARDSS [E10R]: 5.12
KGGKRKLFAEDSS [V3G]: 2.38
KGVKRKLFAENSS [D11N]: 7.26
KGVKRKLFHEDSS [A9H]: 7.13
KGVKRKLCAEDSS [F8C]: 0.454
KGVKRNLFAEDSS [K6N]: 5.31
KGVKRKLFSEDSS [A9S]: 7.46
KGVKRKLFAECSS [D11C]: 7.17

Series 4
Target: UDP-N-acetylglucosamine--peptide N-acetylglucosaminyltransferase 110 kDa subunit (OGT, Homo sapiens, UniProt O15294)
UniProt O15294, sequence (whole entry, looked up): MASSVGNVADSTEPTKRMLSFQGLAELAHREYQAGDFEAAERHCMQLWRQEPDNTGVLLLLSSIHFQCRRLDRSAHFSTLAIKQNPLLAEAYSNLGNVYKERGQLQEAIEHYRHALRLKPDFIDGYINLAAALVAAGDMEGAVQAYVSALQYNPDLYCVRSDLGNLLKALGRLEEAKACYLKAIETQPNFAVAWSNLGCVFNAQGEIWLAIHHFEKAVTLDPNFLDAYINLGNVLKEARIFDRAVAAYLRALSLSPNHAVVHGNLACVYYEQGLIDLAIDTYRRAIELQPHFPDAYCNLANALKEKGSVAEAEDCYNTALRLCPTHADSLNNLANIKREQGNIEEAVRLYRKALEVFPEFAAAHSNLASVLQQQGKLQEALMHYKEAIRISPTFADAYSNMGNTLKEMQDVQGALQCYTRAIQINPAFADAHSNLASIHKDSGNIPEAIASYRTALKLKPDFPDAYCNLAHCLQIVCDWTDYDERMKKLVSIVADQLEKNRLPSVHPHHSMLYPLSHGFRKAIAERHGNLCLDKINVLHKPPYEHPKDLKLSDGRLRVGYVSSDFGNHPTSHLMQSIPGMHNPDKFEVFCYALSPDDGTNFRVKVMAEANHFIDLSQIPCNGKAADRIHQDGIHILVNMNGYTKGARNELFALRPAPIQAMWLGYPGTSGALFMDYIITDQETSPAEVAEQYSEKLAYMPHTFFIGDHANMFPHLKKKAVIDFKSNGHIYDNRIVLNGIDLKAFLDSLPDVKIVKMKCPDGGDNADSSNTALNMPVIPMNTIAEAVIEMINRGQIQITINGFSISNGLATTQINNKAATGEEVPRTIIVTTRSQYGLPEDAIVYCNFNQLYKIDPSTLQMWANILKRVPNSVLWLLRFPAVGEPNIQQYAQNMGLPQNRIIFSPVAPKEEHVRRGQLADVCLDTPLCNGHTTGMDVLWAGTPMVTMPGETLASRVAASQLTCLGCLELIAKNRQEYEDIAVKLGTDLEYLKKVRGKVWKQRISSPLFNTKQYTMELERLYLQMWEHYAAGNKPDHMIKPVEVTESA
Effect on: binding
Method: phage display NGS
Molecule type: peptide
Concentration: concentration not given
Relative to: input library
Measurement: enrichment fold change
QVFPPEYWIEYNMV: 2
HFASPYYTQWHGHWL: 4.35
HIGRHTGPHYYNIVH: 3.81
IERDNQYHPMYIIDI: 5.1
YPMHNHHVMYDFHAD: 3.94
HERHHYVRYQNAGQD: 2.44
HPSHHHGHQNEYYV: 9.13
HSWYGPTHHSVHDTT: 5.27
TAPFYPPAYAI: 1.12
HALHHGSDLHYVVRT: 9.14
HKHLMDRHDFMYMHA: 8.12
RDTEIIFLPQYIIGY: 14.9
QWQHQTRHVHIPHNH: 6.8
HNVEPMHHNHSARPY: 7.59
QFLPSYQIQVDLPHY: 1.93
THQHAHHVYSIDPSG: 4.02
GADYLPKYQVVYNVR: 7.85
TEVPPQYIIEYWKLD: 5.37
HQHQQPQQHVKWHKF: 3.73

For quick reference, copied from above (series 2):
F229G: 554 nM
T349G: 2.01 µM
T164G: 1.48 µM
D398V: 2.45 µM
R246G: 4.4 µM
E297G: 754 nM
S412G: 2.92 µM
G265V: 2.86 µM
Y238V: 2.31 µM
E359V: 2.1 µM
A331G: 5.32 µM
